Results from different studies.
Lines come from different studies, so protocols differ. ± marks the error that the study gave.
rep main protease: Replicase polyprotein 1ab, main protease (rep, Severe acute respiratory syndrome coronavirus 2, UniProt P0DTD1)

Compound | target or system | assay | test system | setting | scale | quantity | value
CC[C@H](C)[C@H](NC(=O)[C@H](CC(C)C)NC(=O)[C@H](Cc1c[nH]c2ccccc12)NC(=O)[C@H](CCC(N)=O)NC(=O)[C@@H](NC(=O)[C@H](Cc1ccccc1)NC(=O)[C@H](C)NC(=O)[C@H](CCCCNC(=O)COCCOCCNC(=O)COCCOCCNC(=O)CC[C@H](NC(=O)CCCCCCCCCCCCCCCCCCC(=O)O)C(=O)O)NC(=O)[C@H](CCC(N)=O)NC(=O)[C@H](C)NC(=O)[C@@H](NC(=O)[C@H](CCCCN)NC(=O)[C@H](CC(=O)O)NC(=O)[C@H](CC(C)C)NC(=O)C(C)(C)NC(=O)[C@@H](NC(=O)[C@H](CO)NC(=O)[C@H](Cc1ccc(O)cc1)NC(=O)[C@H](CC(=O)O)NC(=O)[C@H](CO)NC(=O)[C@@H](NC(=O)[C@H](Cc1ccccc1)NC(=O)[C@@H](NC(=O)CNC(=O)[C@H](CCC(=O)O)NC(=O)C(C)(C)NC(=O)[C@@H](N)Cc1ccc(O)cc1)[C@@H](C)O)[C@@H](C)O)[C@@H](C)CC)[C@@H](C)CC)C(C)C)C(=O)N[C@@H](C)C(=O)NCC(=O)NCC(=O)N1CCC[C@H]1C(=O)N[C@@H](CO)C(=O)N[C@@H](CO)C(=O)NCC(=O)N[C@@H](C)C(=O)N1CCC[C@H]1C(=O)N1CCC[C@H]1C(=O)N1CCC[C@H]1C(=O)N[C@@H](CO)C(N)=O |  | item: treatment-emergent vessel puncture site bruise | healthy subjects | 4.5 mg, multiple ascending dose |  | subjects with adverse event | 16.7%
O=C(NC[C@@H]1C[C@H]2CC[C@@H]1N(C(=O)c1ccc3n[nH]nc3n1)C2)[C@@H]1CCc2n[nH]c(=O)n2C1 | rep main protease | enzyme activity, inhibitor |  | 5 µM, run 2 |  | inhibition | 12.3%
Nc1ncnc2c([C@@H]3N[C@H](CO)[C@@H](O)[C@H]3O)c[nH]c12 | Marburg virus | surface glycoprotein expression | HeLa, Musoke | 25 µM, 24 h |  | inhibition | 52.5%
CSCC[C@H](NC(=O)[C@H](CCCNC(=N)N)NC(=O)[C@H](Cc1ccccc1)NC(=O)[C@H](CS)NC(=O)[C@H](C)NC(=O)[C@@H](NC(=O)[C@@H](NC(=O)[C@H](C)NC(=O)[C@H](CCCNC(=N)N)NC(=O)[C@H](CCCNC(=N)N)NC(=O)[C@H](CCCNC(=N)N)NC(=O)[C@H](CCC(N)=O)NC(=O)[C@H](CCCCN)NC(=O)[C@H](CO)NC(=O)[C@H](CC(C)C)NC(=O)[C@H](CC(C)C)NC(=O)[C@H](CCCCN)NC(=O)[C@H](Cc1c[nH]cn1)NC(=O)[C@H](Cc1c[nH]c2ccccc12)NC(=O)[C@@H](NC(=O)[C@H](C)NC(=O)[C@H](CCCCN)NC(=O)[C@H](CCCCN)NC(=O)[C@H](CO)NC(=O)[C@H](CCCCN)NC(C)=O)C(C)C)C(C)C)C(C)C)C(=O)N[C@H](C(=O)N1CCC[C@H]1C(=O)N[C@@H](CC(C)C)C(=O)N[C@@H](Cc1ccc(O)cc1)C(=O)N[C@@H](CC(N)=O)C(N)=O)[C@@H](C)O | calmodulin 76-148 sites III and IV | calcium binding, Tyr fluorescence titration |  | 12 µM, pH 7.4, 22 °C, added: 6 µM calmodulin |  | apparent ΔG1 | -9.37 ± 0.31 kcal/mol
Cc1cc(N[C@H]2C[C@H]3CC[C@@H]2N(C(=O)c2cnc4[nH]ccc4c2)C3)nc(-c2cccnc2)n1 | rep main protease | enzyme activity, inhibitor |  | 5 µM, run 2 |  | inhibition | 11.4%
CNC(=O)[C@@H](NC(=O)[C@H](CC(C)C)[C@H](O)C(=O)NO)C(C)(C)C | Daboia russelii venom proteases (SVMP) | protease activity, inhibitor | MP population | 100 µM, added: azocasein substrate | relative to: venom alone | remaining activity | 0%
Cn1cnc(Cn2c(=O)[nH]/c(=N\c3cc4cn(C)nc4cc3Cl)n(Cc3cc(F)c(F)cc3F)c2=O)n1 |  |  | human, normal renal function | oral, 375 mg, decreased GFR TEAE, Mild severity |  | patients with adverse event | 0%
CCS(=O)(=O)c1ncc(Cl)c(C(=O)N(Cc2ccc(Cl)cc2)Cc2ccco2)n1 | rep main protease | viral replication, mKate2 reporter | SARS-CoV-2 | 20 µM |  | inhibition | -0.0687%
Nc1ncnc2c1ncn2[C@H]1C[C@H](O)[C@@H](COP(=O)(O)OP(=O)(O)OP(=O)(O)O)O1 | Gag-Pol polyprotein, reverse transcriptase (gag-pol, Human immunodeficiency virus type 1 group M subtype B, UniProt P04585, K653A) | substrate |  | K66A mutant, added: matched T:A primer template |  | kcat | 0.116 ± 0.00667 s⁻¹
Cc1ccccc1C(=O)N[C@H](C)c1ccc2ccccc2c1 | rep main protease | viral replication, mKate2 reporter | SARS-CoV-2 | 20 µM |  | inhibition | -0.271%
CCN(CC)c1nc(C)cc(OP(=S)(OC)OC)n1 | uncharacterized protein (Anopheles coluzzii, UniProt A0A6E8VQK1) | enzyme activity, inhibitor | Sf9 cell homogenate | 45.87 µM, 0.1667 h, added: α-naphthyl acetate substrate | relative to: no inhibitor | remaining activity | 99.3%
Cc1cnoc1C(=O)NC[C@@H]1CC2(CCOCC2)CN1C(=O)c1cc(F)cc(C(N)=O)c1 | rep main protease | enzyme activity, inhibitor |  | 5 µM, mean of runs |  | inhibition | 13.5%
C[C@H](NC(=O)CCC(F)(F)F)C(=O)N[C@@H]1C(=O)N(CCO)c2ncccc2-c2ccccc21 | rep main protease | reporter gene (mKate2), inhibitor |  | 20 µM |  | inhibition | -0.325%

Repeated from above:
Compound | target or system | assay | test system | setting | scale | quantity | value
O=C(NC[C@@H]1C[C@H]2CC[C@@H]1N(C(=O)c1ccc3n[nH]nc3n1)C2)[C@@H]1CCc2n[nH]c(=O)n2C1 | rep main protease | enzyme activity, inhibitor |  | 5 µM, run 2 |  | inhibition | 12.3%
CSCC[C@H](NC(=O)[C@H](CCCNC(=N)N)NC(=O)[C@H](Cc1ccccc1)NC(=O)[C@H](CS)NC(=O)[C@H](C)NC(=O)[C@@H](NC(=O)[C@@H](NC(=O)[C@H](C)NC(=O)[C@H](CCCNC(=N)N)NC(=O)[C@H](CCCNC(=N)N)NC(=O)[C@H](CCCNC(=N)N)NC(=O)[C@H](CCC(N)=O)NC(=O)[C@H](CCCCN)NC(=O)[C@H](CO)NC(=O)[C@H](CC(C)C)NC(=O)[C@H](CC(C)C)NC(=O)[C@H](CCCCN)NC(=O)[C@H](Cc1c[nH]cn1)NC(=O)[C@H](Cc1c[nH]c2ccccc12)NC(=O)[C@@H](NC(=O)[C@H](C)NC(=O)[C@H](CCCCN)NC(=O)[C@H](CCCCN)NC(=O)[C@H](CO)NC(=O)[C@H](CCCCN)NC(C)=O)C(C)C)C(C)C)C(C)C)C(=O)N[C@H](C(=O)N1CCC[C@H]1C(=O)N[C@@H](CC(C)C)C(=O)N[C@@H](Cc1ccc(O)cc1)C(=O)N[C@@H](CC(N)=O)C(N)=O)[C@@H](C)O | calmodulin 76-148 sites III and IV | calcium binding, Tyr fluorescence titration |  | 12 µM, pH 7.4, 22 °C, added: 6 µM calmodulin |  | apparent ΔG1 | -9.37 ± 0.31 kcal/mol
